Measured values of several laboratories.
A part holds a random share of what one study measured. “And” joins repeats or separate records; there may be more than shown.
UniProt Q00537, sequence (whole entry, looked up): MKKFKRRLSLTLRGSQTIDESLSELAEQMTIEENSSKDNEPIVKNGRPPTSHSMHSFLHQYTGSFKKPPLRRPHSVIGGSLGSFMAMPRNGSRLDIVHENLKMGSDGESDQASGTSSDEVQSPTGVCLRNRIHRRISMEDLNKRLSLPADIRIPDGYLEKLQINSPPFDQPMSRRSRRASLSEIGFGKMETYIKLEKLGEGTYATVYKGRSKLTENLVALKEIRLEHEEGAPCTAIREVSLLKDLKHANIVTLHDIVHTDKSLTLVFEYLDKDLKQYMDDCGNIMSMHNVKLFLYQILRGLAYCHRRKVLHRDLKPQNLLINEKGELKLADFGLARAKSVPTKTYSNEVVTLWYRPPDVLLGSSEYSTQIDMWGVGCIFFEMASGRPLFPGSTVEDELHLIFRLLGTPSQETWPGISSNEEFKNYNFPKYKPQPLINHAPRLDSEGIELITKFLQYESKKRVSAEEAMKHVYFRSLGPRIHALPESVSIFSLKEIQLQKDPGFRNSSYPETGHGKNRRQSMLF
UniProt P51956, sequence (whole entry, looked up): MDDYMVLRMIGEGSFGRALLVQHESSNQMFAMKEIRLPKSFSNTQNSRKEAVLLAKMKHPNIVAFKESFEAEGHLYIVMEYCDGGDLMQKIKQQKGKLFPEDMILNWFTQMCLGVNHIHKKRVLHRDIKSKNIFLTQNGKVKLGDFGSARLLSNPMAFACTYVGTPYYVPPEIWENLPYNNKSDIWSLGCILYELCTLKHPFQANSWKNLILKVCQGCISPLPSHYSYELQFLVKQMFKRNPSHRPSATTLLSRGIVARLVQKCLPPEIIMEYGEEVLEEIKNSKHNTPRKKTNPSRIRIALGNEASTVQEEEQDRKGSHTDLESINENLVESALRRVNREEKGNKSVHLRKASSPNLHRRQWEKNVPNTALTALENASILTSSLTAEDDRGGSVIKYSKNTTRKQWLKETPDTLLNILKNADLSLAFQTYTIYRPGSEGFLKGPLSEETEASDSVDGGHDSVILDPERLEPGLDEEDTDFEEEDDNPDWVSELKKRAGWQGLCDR
UniProt Q6P3R8, sequence (whole entry, looked up): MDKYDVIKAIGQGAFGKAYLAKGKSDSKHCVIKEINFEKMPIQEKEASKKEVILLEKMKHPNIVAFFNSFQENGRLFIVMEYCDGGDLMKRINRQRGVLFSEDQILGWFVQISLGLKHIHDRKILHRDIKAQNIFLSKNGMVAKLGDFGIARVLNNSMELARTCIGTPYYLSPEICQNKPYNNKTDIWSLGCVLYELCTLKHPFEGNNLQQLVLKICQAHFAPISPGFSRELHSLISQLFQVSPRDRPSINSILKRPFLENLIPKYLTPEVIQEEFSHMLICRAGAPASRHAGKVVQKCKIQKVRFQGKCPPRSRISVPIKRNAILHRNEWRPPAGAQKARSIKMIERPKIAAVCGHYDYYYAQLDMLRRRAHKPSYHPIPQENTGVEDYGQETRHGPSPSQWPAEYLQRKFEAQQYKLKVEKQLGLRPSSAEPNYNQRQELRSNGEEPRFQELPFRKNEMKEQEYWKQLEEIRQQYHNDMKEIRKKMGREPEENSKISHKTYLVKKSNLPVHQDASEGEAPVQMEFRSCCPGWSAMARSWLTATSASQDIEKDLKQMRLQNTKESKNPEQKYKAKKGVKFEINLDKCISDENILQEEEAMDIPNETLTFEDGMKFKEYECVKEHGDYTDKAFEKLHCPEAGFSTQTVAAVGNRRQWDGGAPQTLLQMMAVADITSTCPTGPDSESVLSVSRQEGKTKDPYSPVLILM
UniProt P00519, sequence (whole entry, unmodified, looked up): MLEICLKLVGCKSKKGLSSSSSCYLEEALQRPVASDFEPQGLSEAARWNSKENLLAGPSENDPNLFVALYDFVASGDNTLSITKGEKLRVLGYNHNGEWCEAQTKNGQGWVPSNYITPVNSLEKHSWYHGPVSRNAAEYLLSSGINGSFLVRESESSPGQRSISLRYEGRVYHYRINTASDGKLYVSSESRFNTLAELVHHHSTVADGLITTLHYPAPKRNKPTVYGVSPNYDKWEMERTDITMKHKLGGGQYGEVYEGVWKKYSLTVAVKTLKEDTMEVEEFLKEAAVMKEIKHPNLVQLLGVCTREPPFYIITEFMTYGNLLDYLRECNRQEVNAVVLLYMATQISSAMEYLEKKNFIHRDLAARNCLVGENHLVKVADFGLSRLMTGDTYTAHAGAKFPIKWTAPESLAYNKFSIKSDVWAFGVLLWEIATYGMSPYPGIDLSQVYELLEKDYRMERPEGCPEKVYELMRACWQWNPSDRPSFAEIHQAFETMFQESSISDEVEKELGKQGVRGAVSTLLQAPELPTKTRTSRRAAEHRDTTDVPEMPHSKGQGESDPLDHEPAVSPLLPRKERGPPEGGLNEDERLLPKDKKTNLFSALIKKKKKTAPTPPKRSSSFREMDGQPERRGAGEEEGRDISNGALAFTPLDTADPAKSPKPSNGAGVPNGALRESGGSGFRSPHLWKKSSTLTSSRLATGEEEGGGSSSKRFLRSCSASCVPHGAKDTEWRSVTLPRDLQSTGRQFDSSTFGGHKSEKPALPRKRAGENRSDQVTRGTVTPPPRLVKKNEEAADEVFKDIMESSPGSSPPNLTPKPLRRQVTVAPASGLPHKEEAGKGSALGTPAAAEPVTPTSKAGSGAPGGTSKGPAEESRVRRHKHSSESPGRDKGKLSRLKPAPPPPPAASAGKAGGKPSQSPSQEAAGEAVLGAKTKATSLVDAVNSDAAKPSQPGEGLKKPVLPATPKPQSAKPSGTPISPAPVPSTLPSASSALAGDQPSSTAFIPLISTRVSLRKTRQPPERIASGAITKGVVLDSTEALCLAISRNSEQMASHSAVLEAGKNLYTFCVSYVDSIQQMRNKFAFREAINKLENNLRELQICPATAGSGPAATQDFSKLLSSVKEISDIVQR
UniProt Q86UX6, sequence (whole entry, looked up): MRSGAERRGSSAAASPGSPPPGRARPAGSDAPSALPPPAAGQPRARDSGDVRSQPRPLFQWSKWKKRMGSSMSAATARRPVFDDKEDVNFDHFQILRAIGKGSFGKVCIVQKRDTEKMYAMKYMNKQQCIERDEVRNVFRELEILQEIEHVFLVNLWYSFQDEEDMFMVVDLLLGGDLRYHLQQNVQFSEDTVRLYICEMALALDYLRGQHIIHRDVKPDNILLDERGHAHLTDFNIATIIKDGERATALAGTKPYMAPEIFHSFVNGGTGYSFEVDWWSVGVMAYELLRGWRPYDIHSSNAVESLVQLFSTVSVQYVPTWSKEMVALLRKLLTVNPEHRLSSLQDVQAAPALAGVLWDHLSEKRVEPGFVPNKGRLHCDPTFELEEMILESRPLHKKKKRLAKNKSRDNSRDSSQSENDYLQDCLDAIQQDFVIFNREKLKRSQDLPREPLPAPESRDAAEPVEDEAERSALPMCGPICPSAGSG
UniProt Q14680, sequence (whole entry, looked up): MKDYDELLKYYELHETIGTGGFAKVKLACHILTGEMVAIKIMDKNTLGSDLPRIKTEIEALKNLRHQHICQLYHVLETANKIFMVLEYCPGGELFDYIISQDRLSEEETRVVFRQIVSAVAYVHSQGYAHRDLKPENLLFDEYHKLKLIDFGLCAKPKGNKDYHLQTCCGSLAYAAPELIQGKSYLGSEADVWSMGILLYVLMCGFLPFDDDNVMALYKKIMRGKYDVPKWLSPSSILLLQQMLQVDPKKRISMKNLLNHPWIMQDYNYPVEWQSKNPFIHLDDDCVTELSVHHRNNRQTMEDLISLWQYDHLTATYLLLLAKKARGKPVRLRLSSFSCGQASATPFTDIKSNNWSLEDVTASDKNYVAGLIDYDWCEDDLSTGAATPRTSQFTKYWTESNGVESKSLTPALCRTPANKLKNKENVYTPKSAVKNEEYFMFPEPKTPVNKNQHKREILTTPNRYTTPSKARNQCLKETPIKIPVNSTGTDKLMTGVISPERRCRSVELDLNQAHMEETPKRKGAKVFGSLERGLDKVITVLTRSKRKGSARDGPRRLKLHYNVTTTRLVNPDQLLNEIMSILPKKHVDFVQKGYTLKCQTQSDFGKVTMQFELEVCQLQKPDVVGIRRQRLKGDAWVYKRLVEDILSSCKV
UniProt Q9UQB9, sequence (whole entry, looked up): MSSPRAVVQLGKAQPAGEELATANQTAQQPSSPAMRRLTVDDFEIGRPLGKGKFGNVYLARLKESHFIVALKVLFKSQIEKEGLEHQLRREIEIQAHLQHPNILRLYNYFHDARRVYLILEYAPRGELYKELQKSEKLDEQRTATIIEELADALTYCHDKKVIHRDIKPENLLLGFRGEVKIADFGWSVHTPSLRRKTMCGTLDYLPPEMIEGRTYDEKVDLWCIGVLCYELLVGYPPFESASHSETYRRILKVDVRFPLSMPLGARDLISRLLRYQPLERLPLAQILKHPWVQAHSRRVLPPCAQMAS

Block 1
SMILES: CN1CC[C@H](c2c(O)cc(O)c3c(=O)cc(-c4ccccc4Cl)oc23)[C@H](O)C1
Species: nude mouse, HH xenograft
Dose: dose not given
conditions	tumour volume
day 17	144 mm³ and 126 mm³ and 356 mm³ and 234 mm³ and 200 mm³ and 75.7 mm³ and 109 mm³ and 252 mm³
day 6	96.8 mm³ and 90.4 mm³ and 103 mm³ and 127 mm³ and 108 mm³ and 80.6 mm³ and 102 mm³ and 81.9 mm³
day 12	110 mm³ and 43.5 mm³ and 180 mm³ and 127 mm³ and 57.7 mm³ and 80.6 mm³ and 71.5 mm³
day 10	90.4 mm³ and 50.2 mm³ and 165 mm³ and 191 mm³ and 116 mm³ and 60.7 mm³ and 109 mm³

Block 2
Species: human
Matrix: microsomes or S9
Concentration: 2 µM
Time: 0.5 h
SMILES	remaining compound
c1ccc(C2CCCN2Cc2ccc3occc3c2)nc1 (stereo not shown)	64.6%
c1ccc(-c2nc3c(-c4ccccc4)ccc(-c4ccccc4)n3n2)cc1	78.2%
Cc1ccc(NC(=O)Nc2ccc(Cc3ccc(NC(=O)OC(C)(C)C)cc3)cc2)cc1	62.5%
CCn1nccc1C(C)NS(=O)(=O)c1ccc(Br)s1 (stereo not shown)	34.8%
CC(Nc1ccc2cc[nH]c2n1)c1cn2ccsc2n1 (stereo not shown)	60.4%
Cc1nc2c(c(C)c1CNC(=O)COC1CCCCC1)c(=O)[nH]n2C	62.2%
Cc1ccc(C(=O)C2=CN(c3cc(Cl)cc(Cl)c3)c3cc(F)ccc3S2(=O)=O)c(C)c1	2.05%
CCC(=O)N(CCC1(c2ccccc2)CCOC(C)(C)C1)CC1CCOC(C)(C)C1 (stereo not shown)	1.9%
CN1CCN(C(=O)N2CCCN(C(=O)C[C@@H](Cc3cc(F)c(F)cc3F)NC(=O)OC(C)(C)C)CC2)CC1	12.5%

Block 3
Target: Protein kinase C beta type, isoform beta-II (PRKCB, Homo sapiens, UniProt P05771)
UniProt P05771, sequence (whole entry, looked up): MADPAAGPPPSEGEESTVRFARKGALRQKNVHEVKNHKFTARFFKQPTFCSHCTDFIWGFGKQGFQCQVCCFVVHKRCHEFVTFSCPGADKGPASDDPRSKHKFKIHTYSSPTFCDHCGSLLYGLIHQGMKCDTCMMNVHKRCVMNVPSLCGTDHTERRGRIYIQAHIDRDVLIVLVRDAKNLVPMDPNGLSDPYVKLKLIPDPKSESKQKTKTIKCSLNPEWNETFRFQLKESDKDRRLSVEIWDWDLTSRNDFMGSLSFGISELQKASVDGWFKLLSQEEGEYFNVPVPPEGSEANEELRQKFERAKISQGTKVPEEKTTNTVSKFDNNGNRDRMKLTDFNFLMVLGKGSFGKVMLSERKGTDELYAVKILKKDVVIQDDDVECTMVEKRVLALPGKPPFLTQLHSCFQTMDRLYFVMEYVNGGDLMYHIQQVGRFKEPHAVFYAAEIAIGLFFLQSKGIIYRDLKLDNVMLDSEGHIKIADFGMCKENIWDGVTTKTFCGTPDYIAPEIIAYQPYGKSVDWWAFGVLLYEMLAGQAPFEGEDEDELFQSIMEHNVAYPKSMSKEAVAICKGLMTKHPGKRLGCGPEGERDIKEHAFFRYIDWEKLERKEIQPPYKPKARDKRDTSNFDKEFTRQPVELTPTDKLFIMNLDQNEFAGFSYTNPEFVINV
Read-out: enzyme activity
Action: inhibitor
Concentration: 0.5 µM
Reference: control
Structure (SMILES)	remaining activity [%]
CN(C)c1ccc(C=C2C(=O)Nc3ccccc32)cc1	103
Nc1ncnc2n[nH]c(Nc3ccc(F)cc3)c12	105
O=C(Nc1cccc(Nc2cc(Nc3cccc(C(F)(F)F)c3)ncn2)c1)C1CC1	107
Cc1ccc(Nc2nccc(N(C)c3ccc4c(C)n(C)nc4c3)n2)cc1S(N)(=O)=O	96.7
O=C1NC(=O)C(c2cn(CCCn3ccnc3)c3ccccc23)=C1Nc1ccccc1	4.29
CCOC(=O)c1c(C)[nH]c(/C=C2\C(=O)Nc3ccccc32)c1C	91.5
COc1ccc(OC)c2c(=S)c3ccccc3[nH]c12	106
COc1cc2ncnc(Nc3ccc(Oc4ccccc4)cc3)c2cc1OC	92.8
O=C(CCCc1ccc(-c2ccccc2F)cc1)Nc1ccc(O)cc1	102
Nc1[nH]nc2nc3ccccc3nc12	88.5
Cn1sc(=O)n(Cc2ccccc2)c1=O	111
CO[C@H]1C[C@@H]2CC[C@@H](C)[C@@](O)(O2)C(=O)C(=O)N2CCCC[C@H]2C(=O)O[C@H]([C@H](C)C[C@@H]2CC[C@@H](O)[C@H](OC)C2)CC(=O)[C@H](C)/C=C(\C)[C@@H](O)[C@@H](OC)C(=O)[C@H](C)C[C@H](C)/C=C/C=C/C=C/1C	89.1
O=S(=O)(c1cccc2cnccc12)N1CCCNCC1	101
N#CC(C#N)=C(N)/C(C#N)=C/c1ccc(O)cc1	111
N#CCCc1ccc2c(c1)-c1[nH]c3ccc([N+](=O)[O-])cc3c1CC(=O)N2	76.3
COc1ccc(C(=O)Nc2sc3c(c2C(N)=O)CCCC3)cc1OC	93.5
Cc1cccc(-c2[nH]c(C(C)(C)C)nc2-c2ccc3c(c2)OCO3)n1	99.9

Block 4
SMILES: CC(C)(O)c1cncc(-c2nc3ccc(F)cc3n2C2CC2)c1
Read-out: cell-free assay
Technique: competition with immobilised ligand
Concentration: 1 µM
target	remaining binding
BMP2K (Homo sapiens, UniProt Q9NSY1)	100%
NEK3 (Homo sapiens, UniProt P51956)	100%
EGFR (Homo sapiens, UniProt P00533, T790M)	90%
AKT2 (Homo sapiens, UniProt P31751)	84%
TTK (Homo sapiens, UniProt P33981)	100%
Aurora kinase C (AURKC, Homo sapiens, UniProt Q9UQB9)	100%
MAP3K6 (Homo sapiens, UniProt O95382)	100%
EGFR (Homo sapiens, UniProt P00533, L858R)	100%
DMPK (Homo sapiens, UniProt Q09013)	71%
MET (Homo sapiens, UniProt P08581, M1250T)	100%
STK36 (Homo sapiens, UniProt Q9NRP7)	93%
CDK17 (Homo sapiens, UniProt Q00537)	100%
Ribosomal protein S6 kinase alpha-2, N-terminal kinase domain (RPS6KA2, Homo sapiens, UniProt Q15349)	100%
HCK (Homo sapiens, UniProt P08631)	100%
MAP2K4 (Homo sapiens, UniProt P45985)	100%
Non-receptor tyrosine-protein kinase TYK2, JH1 (TYK2, Homo sapiens, UniProt P29597)	100%
Tyrosine-protein kinase ABL1, non-phosphorylated (ABL1, Homo sapiens, UniProt P00519, F317L)	100%
MELK (Homo sapiens, UniProt Q14680)	100%
ACVR1B (Homo sapiens, UniProt P36896)	99%
PIK3CA (Homo sapiens, UniProt P42336, E542K)	84%
SRPK1 (Homo sapiens, UniProt Q96SB4)	100%
MAP3K15 (Homo sapiens, UniProt Q6ZN16)	100%
CDC42BPB (Homo sapiens, UniProt Q9Y5S2)	100%
NEK5 (Homo sapiens, UniProt Q6P3R8)	100%
STK32C (Homo sapiens, UniProt Q86UX6)	100%

Repeated from above (block 4):
target	remaining binding
STK36 (Homo sapiens, UniProt Q9NRP7)	93%
BMP2K (Homo sapiens, UniProt Q9NSY1)	100%
SRPK1 (Homo sapiens, UniProt Q96SB4)	100%
ACVR1B (Homo sapiens, UniProt P36896)	99%
EGFR (Homo sapiens, UniProt P00533, T790M)	90%
Aurora kinase C (AURKC, Homo sapiens, UniProt Q9UQB9)	100%
